Published values collected from several papers.
Each numbered part is a random draw from the data of one study; scales do not carry over between parts.
UniProt Q9UK32, sequence (whole entry, looked up): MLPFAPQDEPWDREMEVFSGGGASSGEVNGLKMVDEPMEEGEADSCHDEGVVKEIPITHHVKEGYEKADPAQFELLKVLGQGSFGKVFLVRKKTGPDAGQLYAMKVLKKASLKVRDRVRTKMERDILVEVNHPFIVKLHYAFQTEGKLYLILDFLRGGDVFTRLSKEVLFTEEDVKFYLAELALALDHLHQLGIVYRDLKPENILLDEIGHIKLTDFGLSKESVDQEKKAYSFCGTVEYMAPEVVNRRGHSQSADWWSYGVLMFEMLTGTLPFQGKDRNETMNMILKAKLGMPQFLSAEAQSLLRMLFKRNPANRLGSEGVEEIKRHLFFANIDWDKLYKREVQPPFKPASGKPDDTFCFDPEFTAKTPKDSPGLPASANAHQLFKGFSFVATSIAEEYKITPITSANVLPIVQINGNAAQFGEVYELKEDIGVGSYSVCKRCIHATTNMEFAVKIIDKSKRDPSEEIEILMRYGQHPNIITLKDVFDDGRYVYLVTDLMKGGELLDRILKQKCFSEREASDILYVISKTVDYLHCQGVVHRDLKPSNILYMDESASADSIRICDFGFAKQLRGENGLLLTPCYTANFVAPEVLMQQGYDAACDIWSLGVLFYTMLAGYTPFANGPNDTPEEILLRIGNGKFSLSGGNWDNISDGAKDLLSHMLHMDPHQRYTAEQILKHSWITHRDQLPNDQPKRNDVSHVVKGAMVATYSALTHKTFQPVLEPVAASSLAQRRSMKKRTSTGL
UniProt Q9BXC1, sequence (whole entry, looked up): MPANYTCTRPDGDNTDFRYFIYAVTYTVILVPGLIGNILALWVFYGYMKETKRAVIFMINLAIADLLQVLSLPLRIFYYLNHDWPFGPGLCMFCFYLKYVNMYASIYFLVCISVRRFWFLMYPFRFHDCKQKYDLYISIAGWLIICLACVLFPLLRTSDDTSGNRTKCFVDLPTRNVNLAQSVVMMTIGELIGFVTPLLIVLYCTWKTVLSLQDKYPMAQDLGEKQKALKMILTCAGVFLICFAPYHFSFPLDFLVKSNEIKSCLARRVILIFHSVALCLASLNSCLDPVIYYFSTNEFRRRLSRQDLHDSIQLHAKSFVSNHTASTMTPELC
UniProt Q9BRS2, sequence (whole entry, looked up): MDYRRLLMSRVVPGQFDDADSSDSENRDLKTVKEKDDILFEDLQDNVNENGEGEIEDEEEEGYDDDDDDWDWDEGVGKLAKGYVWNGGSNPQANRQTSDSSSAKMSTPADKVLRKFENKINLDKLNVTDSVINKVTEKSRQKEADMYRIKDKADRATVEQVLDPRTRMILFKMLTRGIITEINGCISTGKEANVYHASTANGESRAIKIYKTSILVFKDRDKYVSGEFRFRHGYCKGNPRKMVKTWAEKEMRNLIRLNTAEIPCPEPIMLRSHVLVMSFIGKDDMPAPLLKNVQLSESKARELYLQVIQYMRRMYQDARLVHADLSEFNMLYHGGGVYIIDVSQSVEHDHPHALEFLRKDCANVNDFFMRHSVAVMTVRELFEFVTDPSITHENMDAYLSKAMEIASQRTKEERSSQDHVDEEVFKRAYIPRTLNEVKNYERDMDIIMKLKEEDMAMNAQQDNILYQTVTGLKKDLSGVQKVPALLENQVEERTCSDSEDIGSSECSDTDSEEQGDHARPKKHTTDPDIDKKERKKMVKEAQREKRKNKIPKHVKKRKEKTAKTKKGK
UniProt Q12852, sequence (whole entry, looked up): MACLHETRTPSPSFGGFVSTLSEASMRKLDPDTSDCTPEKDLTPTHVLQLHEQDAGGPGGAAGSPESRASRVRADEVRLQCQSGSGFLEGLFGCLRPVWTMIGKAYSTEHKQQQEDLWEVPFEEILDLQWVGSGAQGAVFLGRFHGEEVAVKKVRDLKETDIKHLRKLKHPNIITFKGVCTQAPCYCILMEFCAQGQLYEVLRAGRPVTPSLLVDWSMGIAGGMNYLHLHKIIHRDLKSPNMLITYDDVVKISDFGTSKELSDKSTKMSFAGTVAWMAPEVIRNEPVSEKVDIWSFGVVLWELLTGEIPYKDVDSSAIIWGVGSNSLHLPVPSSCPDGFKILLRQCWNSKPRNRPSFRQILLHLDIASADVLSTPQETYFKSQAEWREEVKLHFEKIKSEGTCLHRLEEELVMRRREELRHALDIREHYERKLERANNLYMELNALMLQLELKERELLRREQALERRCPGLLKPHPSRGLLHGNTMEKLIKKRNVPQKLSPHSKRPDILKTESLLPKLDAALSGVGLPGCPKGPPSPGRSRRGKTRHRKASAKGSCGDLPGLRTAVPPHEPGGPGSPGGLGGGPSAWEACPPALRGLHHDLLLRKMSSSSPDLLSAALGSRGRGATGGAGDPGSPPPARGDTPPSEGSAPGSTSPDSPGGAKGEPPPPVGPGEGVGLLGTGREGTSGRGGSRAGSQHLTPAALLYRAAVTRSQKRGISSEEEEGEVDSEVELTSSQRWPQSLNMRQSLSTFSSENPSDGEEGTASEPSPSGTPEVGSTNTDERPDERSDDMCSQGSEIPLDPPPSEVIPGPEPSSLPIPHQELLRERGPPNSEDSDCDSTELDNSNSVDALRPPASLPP
UniProt P35410, sequence (whole entry, looked up): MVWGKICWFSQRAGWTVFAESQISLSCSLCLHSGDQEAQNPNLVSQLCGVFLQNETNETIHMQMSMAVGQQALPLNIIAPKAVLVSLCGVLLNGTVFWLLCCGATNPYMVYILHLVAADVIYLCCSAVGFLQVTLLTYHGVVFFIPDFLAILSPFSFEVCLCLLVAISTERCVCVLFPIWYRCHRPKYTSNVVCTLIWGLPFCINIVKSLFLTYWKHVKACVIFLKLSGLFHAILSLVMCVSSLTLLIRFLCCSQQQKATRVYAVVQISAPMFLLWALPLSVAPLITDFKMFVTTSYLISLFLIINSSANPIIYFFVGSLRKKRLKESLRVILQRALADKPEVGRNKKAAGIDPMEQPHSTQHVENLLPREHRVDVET
UniProt P30530, sequence (whole entry, looked up): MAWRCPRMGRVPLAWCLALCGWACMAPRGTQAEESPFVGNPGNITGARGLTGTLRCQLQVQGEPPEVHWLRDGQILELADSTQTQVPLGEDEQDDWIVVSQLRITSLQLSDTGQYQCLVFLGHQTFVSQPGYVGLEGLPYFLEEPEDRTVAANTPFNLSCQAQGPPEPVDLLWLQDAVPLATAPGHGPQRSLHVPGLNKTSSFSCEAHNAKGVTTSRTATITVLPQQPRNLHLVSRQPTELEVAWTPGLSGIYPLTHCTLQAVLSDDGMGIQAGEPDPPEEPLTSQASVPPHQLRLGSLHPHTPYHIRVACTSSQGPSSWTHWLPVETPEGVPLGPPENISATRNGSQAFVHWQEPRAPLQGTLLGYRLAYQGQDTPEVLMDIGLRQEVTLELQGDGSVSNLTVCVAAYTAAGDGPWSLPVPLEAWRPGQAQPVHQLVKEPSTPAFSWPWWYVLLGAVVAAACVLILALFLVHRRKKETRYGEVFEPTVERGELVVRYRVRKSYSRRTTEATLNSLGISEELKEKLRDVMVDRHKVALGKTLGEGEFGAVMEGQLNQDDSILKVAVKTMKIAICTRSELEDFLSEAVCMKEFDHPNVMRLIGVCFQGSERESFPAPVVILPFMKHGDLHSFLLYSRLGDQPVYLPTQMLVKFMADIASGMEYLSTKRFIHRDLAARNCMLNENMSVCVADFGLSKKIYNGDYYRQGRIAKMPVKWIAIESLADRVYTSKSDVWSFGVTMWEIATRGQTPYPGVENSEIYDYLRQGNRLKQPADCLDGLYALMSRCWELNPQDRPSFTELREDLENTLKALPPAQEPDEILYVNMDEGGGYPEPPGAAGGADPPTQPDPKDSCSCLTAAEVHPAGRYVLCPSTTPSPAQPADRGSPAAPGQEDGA
UniProt Q96AM1, sequence (whole entry, looked up): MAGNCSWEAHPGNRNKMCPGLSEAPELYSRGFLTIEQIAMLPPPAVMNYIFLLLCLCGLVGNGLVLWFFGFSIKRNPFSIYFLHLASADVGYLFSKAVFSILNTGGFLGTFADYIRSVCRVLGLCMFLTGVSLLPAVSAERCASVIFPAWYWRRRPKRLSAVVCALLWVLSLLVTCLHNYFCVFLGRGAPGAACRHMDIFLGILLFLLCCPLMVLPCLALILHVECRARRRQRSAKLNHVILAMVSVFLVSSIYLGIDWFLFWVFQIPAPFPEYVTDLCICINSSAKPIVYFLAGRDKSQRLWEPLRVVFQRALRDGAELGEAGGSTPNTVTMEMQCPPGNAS
UniProt Q13324, sequence (whole entry, looked up): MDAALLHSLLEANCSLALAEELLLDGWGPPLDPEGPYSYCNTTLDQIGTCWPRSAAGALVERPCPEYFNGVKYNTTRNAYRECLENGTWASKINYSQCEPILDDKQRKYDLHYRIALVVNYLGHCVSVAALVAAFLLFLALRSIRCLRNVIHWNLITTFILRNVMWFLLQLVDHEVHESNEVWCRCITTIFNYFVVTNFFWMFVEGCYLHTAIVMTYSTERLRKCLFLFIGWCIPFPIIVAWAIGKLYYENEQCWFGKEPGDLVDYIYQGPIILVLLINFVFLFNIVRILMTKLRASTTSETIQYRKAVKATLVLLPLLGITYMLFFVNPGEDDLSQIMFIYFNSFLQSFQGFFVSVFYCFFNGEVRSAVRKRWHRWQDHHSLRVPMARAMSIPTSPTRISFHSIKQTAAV
UniProt Q9H3Y6, sequence (whole entry, looked up): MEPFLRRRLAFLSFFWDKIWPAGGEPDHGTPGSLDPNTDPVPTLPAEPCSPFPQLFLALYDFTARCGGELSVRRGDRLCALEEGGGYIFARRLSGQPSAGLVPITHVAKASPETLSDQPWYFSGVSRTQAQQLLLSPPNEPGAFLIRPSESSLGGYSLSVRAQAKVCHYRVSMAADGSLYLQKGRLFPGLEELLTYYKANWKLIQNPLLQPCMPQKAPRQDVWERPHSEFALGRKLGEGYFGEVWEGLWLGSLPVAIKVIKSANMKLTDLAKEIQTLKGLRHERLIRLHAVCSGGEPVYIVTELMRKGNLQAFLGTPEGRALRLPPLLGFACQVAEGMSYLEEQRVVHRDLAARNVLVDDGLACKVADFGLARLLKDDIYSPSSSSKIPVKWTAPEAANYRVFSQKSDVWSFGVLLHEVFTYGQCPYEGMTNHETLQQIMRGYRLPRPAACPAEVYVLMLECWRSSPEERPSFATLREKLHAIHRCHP

Set 1 — SMILES: O=C1c2ccccc2-c2nc3nnnn3nc21; observed: enzyme activity; mode: inhibitor; concentration: 0.5 µM; relative to: control
For Cyclin-dependent kinase 6, with cyclin D3 (CDK6, Homo sapiens, UniProt Q00534): remaining activity read 9.93%.
For PHKG1 (Homo sapiens, UniProt Q16816): remaining activity read 92.5%.
For PRKACG (Homo sapiens, UniProt P22612): remaining activity read 88.5%.
For HIPK2 (Homo sapiens, UniProt Q9H2X6): remaining activity read 107%.
The remaining activity was 68.1% (Cyclin-dependent kinase 4, with cyclin D3 (CDK4, Homo sapiens, UniProt P11802)).
It gave 6.33% for remaining activity (SRMS (Homo sapiens, UniProt Q9H3Y6)).
It gave 62.3% for remaining activity (RPS6KA6 (Homo sapiens, UniProt Q9UK32)).
For EPHB4 (Homo sapiens, UniProt P54760): remaining activity read 97.1%.
The remaining activity was 85.2% (CAMK2B (Homo sapiens, UniProt Q13554)).
The remaining activity was 48% (Cyclin-dependent kinase 1, with cyclin B (CDK1, Homo sapiens, UniProt P06493)).
For HIPK4 (Homo sapiens, UniProt Q8NE63): remaining activity read 97.9%.
It gave 116% for remaining activity (WNK3 (Homo sapiens, UniProt Q9BYP7)).
The remaining activity was 89% (MAP4K4 (Homo sapiens, UniProt O95819)).
It gave 79% for remaining activity (PDPK1 (Homo sapiens, UniProt O15530)).
BLK (Homo sapiens, UniProt P51451) — remaining activity: 109%.
The remaining activity was 83.8% (STK17A (Homo sapiens, UniProt Q9UEE5)).
It gave 88.6% for remaining activity (DYRK3 (Homo sapiens, UniProt O43781)).
RPS6KA5 (Homo sapiens, UniProt O75582) — remaining activity: 68.7%.
It gave 76% for remaining activity (MAPKAPK3 (Homo sapiens, UniProt Q16644)).
For EPHB1 (Homo sapiens, UniProt P54762): remaining activity read 89.5%.
The remaining activity was 61.1% (EPHA4 (Homo sapiens, UniProt P54764)).
The remaining activity was 80.5% (STK16 (Homo sapiens, UniProt O75716)).
The remaining activity was 75% (TSSK2 (Homo sapiens, UniProt Q96PF2)).
AXL (Homo sapiens, UniProt P30530) — remaining activity: 10.3%.

Set 2 — technique: competition with immobilised ligand; concentration: 1 µM
SMILES: CC1=C(C#N)[C@@H](c2ccc3[nH]nc(C)c3c2)C(C#N)=C(c2ccc(Cl)cc2)N1
For FGR (Homo sapiens, UniProt P09769); cell-free assay: remaining binding read 100%.
For Mast/stem cell growth factor receptor Kit, autoinhibited (KIT, Homo sapiens, UniProt P10721); cell-free assay: remaining binding read 71.2%.
TESK1 (Homo sapiens, UniProt Q15569); cell-free assay — remaining binding: 100%.
It gave 100% for remaining binding (PRKCE (Homo sapiens, UniProt Q02156); cell-free assay).
The remaining binding was 72.2% (MAP3K12 (Homo sapiens, UniProt Q12852); cell-free assay).
For eIF-2-alpha kinase GCN2, C-terminal kinase domain (EIF2AK4, Homo sapiens, UniProt Q9P2K8, S808G); cell-free assay: remaining binding read 89.9%.
For TGFBR1 (Homo sapiens, UniProt P36897); cell-free assay: remaining binding read 62.4%.
For CAMK2G (Homo sapiens, UniProt Q13555); cell-free assay: remaining binding read 100%.
The remaining binding was 100% (PIP4K2C (Homo sapiens, UniProt Q8TBX8); cell-free assay).
For CSNK1G3 (Homo sapiens, UniProt Q9Y6M4); cell-free assay: remaining binding read 100%.
ALK (Homo sapiens, UniProt Q9UM73, L1196M); cell-free assay — remaining binding: 100%.
It gave 100% for remaining binding (CAMK1G (Homo sapiens, UniProt Q96NX5); cell-free assay).
The remaining binding was 88.5% (CDKL5 (Homo sapiens, UniProt O76039); binding).
The remaining binding was 100% (PRKAA1 (Homo sapiens, UniProt Q13131); cell-free assay).
For Insulin receptor (INSR, Homo sapiens, UniProt P06213); cell-free assay: remaining binding read 100%.
It gave 25.2% for remaining binding (PIK3CA (Homo sapiens, UniProt P42336, M1043I); cell-free assay).
For Ribosomal protein S6 kinase alpha-6, N-terminal kinase domain (RPS6KA6, Homo sapiens, UniProt Q9UK32); cell-free assay: remaining binding read 100%.
The remaining binding was 100% (RIOK1 (Homo sapiens, UniProt Q9BRS2); cell-free assay).
The remaining binding was 100% (STK32A (Homo sapiens, UniProt Q8WU08); binding).
For TRPM6 (Homo sapiens, UniProt Q9BX84); cell-free assay: remaining binding read 100%.
For WNK1 (Homo sapiens, UniProt Q9H4A3); cell-free assay: remaining binding read 100%.
FGFR3 (Homo sapiens, UniProt P22607); cell-free assay — remaining binding: 91.2%.
LRRK2 (Homo sapiens, UniProt Q5S007); cell-free assay — remaining binding: 91.7%.
BRSK2 (Homo sapiens, UniProt Q8IWQ3); cell-free assay — remaining binding: 100%.
EIF2AK1 (Homo sapiens, UniProt Q9BQI3); cell-free assay — remaining binding: 100%.

Set 3 — SMILES: CC(C)CN(C)c1nc(N)c(C(=O)N=C(N)N)nc1Cl; observed: β-arrestin recruitment; mode: agonist; technique: PRESTO-Tango; concentration: 10 µM; relative to: untreated
The “fold over basal” was 0.67 (G-protein coupled receptor 22 (GPR22, Homo sapiens, UniProt Q99680)).
For TRHR (Homo sapiens, UniProt P34981): “fold over basal” read 1.4 fold.
For PTGIR (Homo sapiens, UniProt P43119): “fold over basal” read 0.66.
Probable G-protein coupled receptor 19 (GPR19, Homo sapiens, UniProt Q15760) — “fold over basal”: 1.68.
For Probable G-protein coupled receptor 174 (Homo sapiens, UniProt Q9BXC1): “fold over basal” read 0.97.
For LPAR2 (Homo sapiens, UniProt Q9HBW0): “fold over basal” read 1.86.
SSTR5 (Homo sapiens, UniProt P35346) — “fold over basal”: 0.76 fold.
It gave 0.67 for “fold over basal” (CRHR2 (Homo sapiens, UniProt Q13324)).
For Mas-related G-protein coupled receptor MRG (MAS1L, Homo sapiens, UniProt P35410): “fold over basal” read 0.63.
It gave 1.25 for “fold over basal” (Mas-related G-protein coupled receptor member F (MRGPRF, Homo sapiens, UniProt Q96AM1)).
The “fold over basal” was 1.1 (PTGDR2 (Homo sapiens, UniProt Q9Y5Y4)).
The “fold over basal” was 1.26 fold (FFAR1 (Homo sapiens, UniProt O14842)).
The “fold over basal” was 1.77 (ADRA2C (Homo sapiens, UniProt P18825)).

Set 4 — mode: inhibitor; concentration: 10 µM; relative to: control
Target: Diamine acetyltransferase 1 (Homo sapiens, UniProt P21673)
Construct (P21673 1-171): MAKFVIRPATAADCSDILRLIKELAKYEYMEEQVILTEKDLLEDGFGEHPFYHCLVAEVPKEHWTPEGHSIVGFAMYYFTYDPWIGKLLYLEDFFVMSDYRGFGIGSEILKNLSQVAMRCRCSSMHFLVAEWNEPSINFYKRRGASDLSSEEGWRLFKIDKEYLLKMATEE
The remaining activity of `O=c1oc2ccccc2cc1O` is reported as 93.9%.
With `C=C(C)[C@@H]1CC[C@]2(C(=O)O)CC[C@]3(C)[C@H](CC[C@@H]4[C@@]5(C)CC[C@H](OC(=O)CC(C)(C)C(=O)O)C(C)(C)[C@@H]5CC[C@]43C)[C@@H]12` the remaining activity was 92.8%.
The remaining activity of `C[C@H](CC(=O)C[C@@H](C)[C@H]1CC(=O)[C@@]2(C)C3=C(C(=O)C[C@]12C)[C@@]1(C)CC[C@H](O)C(C)(C)[C@@H]1C[C@@H]3O)C(=O)O` is reported as 123%.
The remaining activity of `CNc1ccccc1C(=O)OC` is reported as 87.7%.
The remaining activity of `CC(=O)OCC=C(C)CCC=C(C)CCC=C(C)C` is reported as 102%.
For `COc1c(O)c(C)cc2c1C(=O)c1c(O)cccc1C2=O`, the remaining activity was 87.6%.
`O=Cc1c[nH]c2ccccc12` has a remaining activity of 87.6%.
The remaining activity of `C[C@@H]1C[C@@H]([C@@H](O)C(C)(C)O)O[C@H]2C[C@@]3(C)C(=C12)C[C@H](O)[C@H]1[C@@]2(C)CCC(=O)C(C)(C)[C@@H]2CC[C@@]13C` is reported as 103%.
`O=C(/C=C/c1ccc(O)c(O)c1)OC[C@@H](O)CO[C@@H]1O[C@H](CO)[C@@H](O)[C@H](O)[C@H]1O` has a remaining activity of 97.9%.
The remaining activity of `O=C(c1c(O)cc(O)cc1O)C(c1coc2cc(O)cc(O)c2c1=O)C(c1ccc(O)cc1)c1ccc(O)cc1` (stereo not shown) is reported as 91.9%.
For `C/C=C/c1cc(OC)c2c(c1)C(C)C(c1ccc(O)c(OC)c1)O2` (stereo not shown), the remaining activity was 97.1%.
For `CC1=C(C=O)C(C)(C)CCC1`, the remaining activity was 88.3%.
The remaining activity of `COC(=O)C1=CO[C@@H](O[C@@H]2O[C@H](CO)[C@@H](O)[C@H](O)[C@H]2O)[C@@H]2C(CO)=C[C@H](O)[C@H]12` is reported as 77.5%.
For `C=C1C[C@@]23CC[C@H]4[C@@](C)(CCC[C@@]4(C)C(=O)O[C@@H]4O[C@H](CO)[C@@H](O)[C@H](O)[C@H]4O)[C@@H]2CC[C@]1(O[C@@H]1O[C@H](CO)[C@@H](O)[C@H](O)[C@H]1O)C3`, the remaining activity was 96.8%.

Repeated from above (set 2):
LRRK2 (Homo sapiens, UniProt Q5S007); cell-free assay — remaining binding: 91.7%.
For CAMK2G (Homo sapiens, UniProt Q13555); cell-free assay: remaining binding read 100%.
FGFR3 (Homo sapiens, UniProt P22607); cell-free assay — remaining binding: 91.2%.
For Insulin receptor (INSR, Homo sapiens, UniProt P06213); cell-free assay: remaining binding read 100%.
The remaining binding was 100% (PIP4K2C (Homo sapiens, UniProt Q8TBX8); cell-free assay).
For eIF-2-alpha kinase GCN2, C-terminal kinase domain (EIF2AK4, Homo sapiens, UniProt Q9P2K8, S808G); cell-free assay: remaining binding read 89.9%.
The remaining binding was 100% (RIOK1 (Homo sapiens, UniProt Q9BRS2); cell-free assay).
For CSNK1G3 (Homo sapiens, UniProt Q9Y6M4); cell-free assay: remaining binding read 100%.
For TRPM6 (Homo sapiens, UniProt Q9BX84); cell-free assay: remaining binding read 100%.
ALK (Homo sapiens, UniProt Q9UM73, L1196M); cell-free assay — remaining binding: 100%.
For Ribosomal protein S6 kinase alpha-6, N-terminal kinase domain (RPS6KA6, Homo sapiens, UniProt Q9UK32); cell-free assay: remaining binding read 100%.
